Measured values of several laboratories.
A part holds a random share of what one study measured. Positions count from the first letter of the parent shown.

Block 1 — technique: protein-binding microarray; form: double-stranded DNA, one strand shown; medium: in vitro; tested at: 940 nM top; setting: 60-bp whole probe; with: salmon DNA 0.4 mg/ml; relative to: random background probes; reading: higher = stronger binding; constant ends, left off below: GCCTAGCAC … GTCTTGATTCGCTTGACGCTGCTG
Target: Interferon regulatory factor 5, full length, phosphomimetic (IRF5, Homo sapiens, UniProt Q13568-2, residues 1-514, S451D/S453D/S456D/S462D)
| Sequence | fitted relative affinity |
| --- | --- |
| TTAGGAATCCTTATCCTTTAGTGCTAG | 0.177 z-score |
| GACGGTAACGGTCTCGGGACGTGCTAG | 0.603 z-score |
| TCAACTTTGCTCTGTGCAACTGTGCTA | -0.0523 z-score |
| TTAGATTTCAGTCTCGATTTGTGCTAG | 4.04 z-score |
| GACGCACTGAGTATCGAGACGTGCTAG | 1.73 z-score |
| GACGAACTGAGTTTCGTGACGTGCTAG | 1.59 z-score |
| GACGGACTGGGTTTGGGGACGTGCTAG | -0.297 z-score |
| GACGGTTTCGGGTATCGGGGCGTGCTA | 10 z-score |
| GACGGACTGGTGACTGGGGACGTGCTA | -0.539 z-score |
| TTAGGACAGGACTATCGGTTAGTGCTA | -0.0153 z-score |
| GACGAACTGAGACTGGAGCCGTGCTAG | -0.243 z-score |
| TCATCTTTTATGCTCTTACTGTGCTAG | 0.999 z-score |
| GACGGTTTCGGTTCCGGGCCGTGCTAG | 13.5 z-score |
| TTAGGGATCCTTCTCCTTTAGTGCTAG | -0.273 z-score |
| CCCCTCTTCTGGATCTCAGAGTGCTAG | 0.0418 z-score |
| GATGGACTGCTTTTCCTGACGTGCTAG | -0.32 z-score |
| TTAGGACTGCTTATCGTTTAGTGCTAG | -0.212 z-score |
| TCAAGCTTCTTTTTTATACTGTGCTAG | 0.992 z-score |
| GACGAACTGGGTTTTCGAGACGTGCTA | 0.0803 z-score |
| GACAATTTCAGTTTCGAGACGTGCTAG | 4.96 z-score |
| TTAGGTTTCCGGTTTCGGTTAGTGCTA | 7.71 z-score |
| TTAGCACTGGGTCTCGGTTAGTGCTAG | 1.75 z-score |
| TTAGGACGGCTACTGCTTTAGTGCTAG | -0.772 z-score |
| TCATTTCTCCTATTTAAACTGTGCTAG | 1.34 z-score |
| TGCAACATCCCAATGGCCCTGTGCTAG | 0.227 z-score |

Block 2 — technique: RNA Bind-n-Seq; form: RNA; medium: in vitro; tested at: 200 nM; setting: whole 134-nt RNA, ends assumed; with: 150 mM KCl; relative to: input library; reading: higher = stronger binding
Target: Ras GTPase-activating protein-binding protein 1, full length (G3BP1, Homo sapiens, UniProt Q13283)
Chain of UniProt Q13283 (whole entry, looked up): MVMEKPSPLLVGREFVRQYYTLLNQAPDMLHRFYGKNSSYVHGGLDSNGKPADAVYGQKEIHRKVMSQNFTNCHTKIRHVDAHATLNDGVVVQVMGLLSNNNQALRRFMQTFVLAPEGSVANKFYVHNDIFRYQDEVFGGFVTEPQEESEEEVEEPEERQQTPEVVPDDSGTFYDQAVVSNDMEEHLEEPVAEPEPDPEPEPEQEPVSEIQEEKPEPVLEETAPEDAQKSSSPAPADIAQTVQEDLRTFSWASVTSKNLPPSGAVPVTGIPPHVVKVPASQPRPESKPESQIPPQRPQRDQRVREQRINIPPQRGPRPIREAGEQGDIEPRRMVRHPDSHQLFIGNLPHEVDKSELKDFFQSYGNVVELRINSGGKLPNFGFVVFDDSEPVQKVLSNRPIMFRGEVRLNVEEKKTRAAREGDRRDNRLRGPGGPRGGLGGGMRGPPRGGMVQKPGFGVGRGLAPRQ
Constant ends, left off below: GGGAGUUCUACAGUCCGACGAUC … UGGAAUUCUCGGGUGUCAAGG
| Sequence | log2 enrichment |
| --- | --- |
| CAGCAGCAGAGUGAGUGGAUUUUAUUUUUCGUUAUUGUUGGUGGUUUAAAAAAUUCCCCCCAUGUAAUUAUUGUGAACACCUUGCUUUGU | -0.307 |
| AAGUCCUGUGCUACACAUCGUAUGUACCGAAUCGGCCCCGGCCCCGGGCCCCGGGGAAAGUAUUAUGUUACGCCGUUCGGAUCUGCACUU | -0.724 |
| UCCUGUGCUACACAUCGUAUGUACCGAAUCGGGGAAAAAAAGGGGUUUGGGGUUUGGGGAAAGUAUUAUGUUACGCCGUUCGGAUCUGCA | 0.834 |
| UAACUUUAGAGGAGGAUCUGAUGGAUAUGGCAGUGGACGUGGAUUUGGGGAUGGCUAUAAUGGGUAUGGAGGAGGACCUGGAGGAGGCAA | 0.212 |
| CCUGUGCUACACAUCGUAUGUACCGAAUCGGGCCCCCCCGGGCCCCCCCGGCCCCCCCGGAAAGUAUUAUGUUACGCCGUUCGGAUCUGC | 0.00849 |
| CUCAAGUCCUGUGCUACACAUCGUAUGUACCGAAUCGGAAAGGUUUGGUUUGGAAAGUAUUAUGUUACGCCGUUCGGAUCUGCACUUCCA | -0.47 |
| CACAGACAACACGCACCCACACAGACACAGAGGGAAGGGGUUGGGAUGGGGACAGGGUGCACAGCAGGGCGGGGCAGGACCCCAGCCCCU | 1.82 |
| UCCUGUGCUACACAUCGUAUGUACCGAAUCGGGGUUUGGGGAAAAAGGGGUUUUUGGGGAAAGUAUUAUGUUACGCCGUUCGGAUCUGCA | 0.696 |
| GCAGGAAGUAAAAACAAAUUGAAAUGCUUCGGAUAGUGGCAGGGGUGGGGGUUGCUAAGGAAAGGGUGGGAUGGGAGUGGGUAAAGAGUU | 1.07 |
| GCAGGAAGUAAAAACAAAGGGAAAUGCUUCGGAUAGUGGCAGGGGUGGGGGUUGCUAAGGAAAGGGUGGGAUGGGAGUGGGUAAAGAGUU | 1.31 |
| AGUCCUGUGCUACACAUCGUAUGUACCGAAUCGGGUUUGGGAAAGGGAAAAAAAGGGAAAGUAUUAUGUUACGCCGUUCGGAUCUGCACU | -0.11 |
| UGGCCCUGGUGGCAUGCGGGGAGGAAGAGGUGGCCUCAUGGAUCGUGGUGGUCCCGCUGGAAUGUUCAGAGGUGGCCGUGGUGGAGACAG | -0.2 |
| UGGGAGGUGGAUUUUGUUUAUUUUUUAAGCUCAUUUCCAGGGGUGGGAAUUUUUUUUUAAUAUGUGUCAUGAAUAAAGUUGUUUUUGAAA | 0.0519 |
| AAGUCCUGUGCUACACAUCGUAUGUACCGAAUCGGGUGGGAAAAAGGGAAAAAGGGAAAGUAUUAUGUUACGCCGUUCGGAUCUGCACUU | 0.0551 |

Block 3 — technique: DHFR PCA, deep sequencing; medium: yeast; with: (+)-ABA 200 µM; relative to: wild-type fitted maximum; reading: higher = stronger binding
Target: ABI1, truncated, D143A, DHFR fusion (Arabidopsis thaliana)
Setting: methotrexate growth selection, single substitutions
Parent: PYL1, truncated, DHFR fusion (Arabidopsis thaliana); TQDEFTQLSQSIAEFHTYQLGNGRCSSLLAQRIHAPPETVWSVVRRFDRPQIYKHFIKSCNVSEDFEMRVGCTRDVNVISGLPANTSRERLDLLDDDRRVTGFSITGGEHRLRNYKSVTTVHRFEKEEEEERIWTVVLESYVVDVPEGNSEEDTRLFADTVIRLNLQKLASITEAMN
| Substitution | relative binding score [%] |
| --- | --- |
| F157Y | 85.8 |
| T17F | 72.3 |
| E109G | 88.4 |
| F47G | 3.23 |
| A175C | 94.9 |
| L138F | 101 |
| I57L | 95.3 |
| S150I | 70.9 |
| S42Y | 76.1 |
| S104F | 38.5 |
| D48L | 2.7 |
| E4M | 93.8 |
| V121Y | -5.53 |
| V136I | 110 |

Block 4 — technique: RNA Bind-n-Seq; form: RNA; medium: in vitro; tested at: 365 nM; relative to: no-protein control; reading: higher = stronger binding
Target: RNA binding protein fox-1 homolog 2, RRM domain, GST-SBP tag (RBFOX2, Homo sapiens, UniProt O43251-10, residues 100-194)
Setting: natural RNA segment, single round, ends assumed
Constant ends, left off below: GGGAGUUCUACAGUCCGACGAUC … UGGAAUUCUCGGGUGCCAA
Residues (chain): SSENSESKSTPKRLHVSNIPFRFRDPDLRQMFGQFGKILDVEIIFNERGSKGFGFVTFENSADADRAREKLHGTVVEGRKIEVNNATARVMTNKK
| Sequence | RBNS enrichment (R) |
| --- | --- |
| AAUAGGUAAAUUGACAAGAAGUAUUUAUUGUUUUUCCAUAUUGCUUUAUUGCCUUCCUUGGGGAUAAACCAAUUCCUAUCCUUUUUUAUAUGUGUAAGUAAAGCCUGAAG | 0.53 |
| CCACGCUGUUGUAAAAACCCAAGUCCCUGUCAUUUGAACCUGGAUCCAGCACUGGUGAACUGAGCUGGGCAGGAAGGGAGAACUUGAAACAGAUUCAGGCCAGCCCAGCC | 0.316 |
| CCCUCCCUCCGCUGAGCAUGUGAUGUCACCCCCUCUGUUUGGAGCUUCUUUAGGUCAAAGAAAUCAAUUGCUUUCCAUAGAGCUGAUACUGUGAACAUUCGAAUGCAUCU | 4.37 |
| GGGCCCUGGAGGCAACUGGCACGGCCUGGUCCCCCUGCUUUGCUGUAUUCUGAUUCCCCAACCCGCUCCCCUGGGCUCAGAUCUGUCCUGUCCUAGGGCGGAGCCAGGCG | 0.33 |
| AAAUGAUGUUCCAGAAAGAUUACUUUUUCUUUUAUUUUUACUGCCAUUGUUGAUGUGUUGUGGGACAUUUUUAUAUAUUGAACCUGGGUUCUUUUUUGAUCUGUUUUGGU | 0.539 |
| GUAAUGUAUUCAAAAUUGUCAGUGUGGUGGCAUCAAAUAUGUAGAGAUGGUCUUUCUGUGGAGAAUUUGUGGAACUUUAGUGUGGAGAACAAAGAAGGAGUUGGAGAUGA | 1.62 |
| CCUGUAUCUUCAUUUACUAUUAGUGAAGAGAUCUCUGUCCUGGAGGUUAUUCUAAACUUUCUUUGUAACUAUUGUUAUAGACAAUGGUUUCCAAACCAGUGGUUUCUAUG | 0.266 |
| AAAAAAAAAACUAGUGUAGUACUGAGUGGGGCAUUCACUGUUGAUCAAGGUUAACCUCUUUAGAAAAGAUUAGUAAAGGAGAUCCCGAAUGAUAGAAGAUAGAAAGACUA | 0.605 |
| AGUAUAAGUGAUUCUAUCUUGGUCCCACCAAGAGUUUGCCCGAUCUCCACACAUCACCUGUUGUCUCACAAAAAGUAGGGGAACCUUGUCAGUCACAUAGGACAGGAUAU | 0.328 |
| GGUACAAAGAGGUCUGUCAUCUUCCCCCUGGGAUAUAAGAUGAUCUAGCUCCCGGUAGAGGAUCACCGGUGACAACUAUAGCAGUUGUAUUGUGUAACAAGUACUGCUCC | 0.295 |
| AUUGUCCUCACUGCCGUGGACACGUGGACACGUCCCACCUGAACCCCCUGCCGGACCAGGAGGCUCCCACAGACACGGCCUUCCACAGAGCGCGGUACAGCUGGGCCCAG | 0.265 |
| UCCCGUUCUCUCAUGCCUUCGCCCUCCGCCCUCCGAGAUCCCUGAAGGAGGAAAGAGAUAAAGGUUAAAGUCCCAGAUCUGUGCCCUCCAGUAGGUUGGGCUGCUCAUUU | 0.386 |

Block 5 — technique: protein binding microarray; form: double-stranded DNA, one strand shown; medium: in vitro; tested at: not given; relative to: not given; reading: higher = stronger binding
Target: Histone acetyltransferase KAT6A, winged helix 2, GST fusion (KAT6A, Homo sapiens, UniProt Q92794, residues 85-181)
Setting: 8-mer, flanks averaged, mean of 2 arrays, mostly near background
Construct (chain): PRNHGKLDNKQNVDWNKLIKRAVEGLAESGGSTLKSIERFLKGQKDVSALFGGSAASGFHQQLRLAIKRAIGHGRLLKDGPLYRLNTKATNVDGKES
| Sequence | E-score |
| --- | --- |
| GAGTCTTA | -0.256 |
| CGTAGTGC | 0.164 |
| AAGGGCCT | 0.0608 |
| AGGCTAAG | -0.123 |
| ACCGACCA | -0.0122 |
| CTCGGTTA | -0.0337 |
| AAAAGTCG | 0.0464 |
| AATCGTGA | -0.0213 |
| GAAGGGGA | 0.0458 |
| CTAGCCCC | -0.07 |
| CTTACTCC | -0.0048 |
| CGTCCTAA | -0.142 |
| GTCGTAAA | -0.156 |
| CCGGAATA | 0.0797 |
| ATTAGGGA | -0.154 |
| ACAACACT | 0.0494 |
| CGCCTTGC | 0.0269 |
| ACTTGTGG | -0.0687 |
| ACTAAGCT | 0.16 |
| AGCTCTGG | 0.0198 |
| GAGTGCCC | 0.088 |
| AAGGGTAA | -0.0159 |
| GGTGAACC | 0.188 |
| GATGTGGA | -0.0408 |
| GATCCGCC | 0.182 |

Repeated from above (block 1):
| Sequence | fitted relative affinity |
| --- | --- |
| GACGAACTGAGACTGGAGCCGTGCTAG | -0.243 z-score |
| TCATCTTTTATGCTCTTACTGTGCTAG | 0.999 z-score |
| GACGGTTTCGGTTCCGGGCCGTGCTAG | 13.5 z-score |
| TTAGGGATCCTTCTCCTTTAGTGCTAG | -0.273 z-score |
| CCCCTCTTCTGGATCTCAGAGTGCTAG | 0.0418 z-score |
| GATGGACTGCTTTTCCTGACGTGCTAG | -0.32 z-score |
| TTAGGACTGCTTATCGTTTAGTGCTAG | -0.212 z-score |
| TCAAGCTTCTTTTTTATACTGTGCTAG | 0.992 z-score |
| GACGAACTGGGTTTTCGAGACGTGCTA | 0.0803 z-score |
| GACAATTTCAGTTTCGAGACGTGCTAG | 4.96 z-score |
